Results of several laboratories.
A part holds a random share of what one study measured. Positions count from the first letter of the parent shown.

Study 1 — technique: RNA Bind-n-Seq; molecule type: RNA; medium: in vitro; tested at: not given; notes: RNA with constant flanks, ends assumed; relative to: input RNA pool; direction: higher = stronger binding
Target: RING finger protein unkempt homolog, zinc fingers 1-6, GST-SBP tag (UNK, Homo sapiens, UniProt Q9C0B0, residues 30-357)
All sequences stand within: GGGAGUUCUACAGUCCGACGAUC … CAACAGAGGAUUGAGCAUCA
Construct (chain): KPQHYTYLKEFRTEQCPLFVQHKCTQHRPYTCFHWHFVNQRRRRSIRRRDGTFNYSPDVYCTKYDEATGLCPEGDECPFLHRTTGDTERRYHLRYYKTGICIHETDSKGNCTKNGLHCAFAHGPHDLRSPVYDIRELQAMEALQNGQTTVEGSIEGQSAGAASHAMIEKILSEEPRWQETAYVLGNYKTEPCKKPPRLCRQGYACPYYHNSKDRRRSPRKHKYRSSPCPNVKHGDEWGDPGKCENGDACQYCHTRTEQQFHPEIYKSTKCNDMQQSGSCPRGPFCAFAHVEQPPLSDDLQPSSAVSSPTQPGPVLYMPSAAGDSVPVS
| Sequence | bound/input enrichment [ratio] |
| --- | --- |
| GGCGCCUUUGCUUUGCCCAUUCUAAACGCACUGCUGGAGACCCCGCAGCGUUUGUUUGCCCCCGUUCUUACCCCGACUCGGGAGCUGGCCUUUCAGAUCUCAGAGCAGUUUGAAGCCCUG | 0.155 |
| AAUGUGGAACUAAGUUCGCUGGCCCGGCUUCCCAGCUUAAAUAAACUUCGAAAAUUGGAGCUCCGUGAUAAUAUAAUUUCUGGAGGCUUGGAAGUCCUGGCAGAGAAAUGUCCAAAUCUU | 0.0862 |
| CACUGGAAGUGUGCUUCUAGGCAUAGUCAUUGGUUUUGCAAAAAGAGGGCUCAAAUUUAAACCGAAAUUUACAGCUAUUUGAAUGGUCAGAUAUACCAAGAAAGAAAAAUAUUUCUGUUC | 0.233 |
| UUUCCAAAGCAGCCAGGAACAUCAGGUGCUUAUCCUCUUACUUCACCCCCUACAUCUUAUCACCGCACAGUCAAUCAGUCUCCCUCAAUGAUGCACACACAGUCUCCAGGAAAUCUGCAU | 0.535 |
| CCAAGAAGGGCCUCCAACAGGCAAAUUCAGGGAGAGGAUGGUUUCAGGGAAUAUCAGUUUAUCCGUGGGUCAUGAAUUAUAGACUUAACAGUAAUGGUUUGUGGUAGGAAGAUCACAACU | 0.457 |
| UGGGAACCGGCGAGAAUCGCCUUUCUGAAUGAAGAGCCCUCUUCACUGCCCCACCCUCACCUCCGAAUUCUCUCCUCUUUCCAAAGAAUGGCAGUUGAACCUCACUGGCCCCUCUGGGGA | 0.227 |
| ACUGCCUUUACCCUGCUGUAUAAUAAACAACCAGACACUUGGCAACUGUUGAUACAGAUGGCCGUCCCGAAUCACUUUUUAUAUGUUUUAACAUUUGAAAUUCAAGUGUACCUGCCAUAA | 0.19 |
| CACAAGAUGGAGCAGGAAAUGACCCGGUUACAUCGGAGAGUGUCAGAGGUGGAGGCUGUGCUCCGUCAGAAGGAGGUGGAGCUGAAGGCCUCUGAGACUCAGAGAUCCCUCCUGGAGCAG | 0.1 |

Study 2 — technique: RNA Bind-n-Seq; molecule type: RNA; medium: in vitro; tested at: 365 nM; relative to: no-protein control; direction: higher = stronger binding
Target: RNA binding protein fox-1 homolog 2, RRM domain, GST-SBP tag (RBFOX2, Homo sapiens, UniProt O43251-10, residues 100-194)
Notes: natural RNA segment, single round, ends assumed
All sequences stand within: GGGAGUUCUACAGUCCGACGAUC … UGGAAUUCUCGGGUGCCAA
Construct (chain): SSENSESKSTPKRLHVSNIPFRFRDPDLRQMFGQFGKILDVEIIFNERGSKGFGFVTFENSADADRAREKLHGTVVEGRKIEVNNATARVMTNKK
| Sequence | RBNS enrichment (R) |
| --- | --- |
| AACCAGGCCAGUCCGGCUCUGGGGAGCAGGGGCCUCCCCGGCAACAGCCCCAGGGGCCUUGAGGGUCUGAGGUCCCAGCCCUGUUGCCAAGUGACCUUGUCCCCAGCUCC | 0.297 |
| UAGUCUGACGCCACGCGCAUCUCUUGUUCUGUGUUCAAUCAGUAGUCCAGGGGAGAAGCUUCUGCUACUUCAGAGCUUUGCUAAACUAACCUAAUUUGUCCAAAUCACCC | 0.301 |
| CAGUGGGACCACCCUGGGCCUCCUUUCUACCUCCACUCAGCACCCUGUUGGCCAAGGAGAAUUUCUGCGGUGGGAGGCAGUGCUCUGCUAGUCAGGAUUGAUAAACAGCU | 0.46 |
| UUAUAAAUAUAUAUUAUAUAAAUAUAUGACAAAGGAAAAUGUUUCAGAUGUCUAUUUGUAUAAUUACUUGAUCUACACAGUGAGGAAAAAAAUGAAUGUAUUUCUGUUUU | 1.23 |
| UGGGAUGGGAGCAGAAGCCCAUGAUGGGACACUUGGGUGUGGGCCAGGGACAGGGCCUCUUUGGAAUUAGGCAGAACGACUGCCACAGCUCAGACCUCAGAGAUUGUGAA | 6.44 |
| UGUACAUUAAGCCAAUAAACUGCUUUAAUGAAUAACAAACUAUGUAGUGUGUCCCUAUUAUAAAUGCAUUGGAGAAGUAUUUUUAUGAGACUCUUUACUCAGGUGCAUGG | 6.8 |
| GGCUGUUAACCCAGUCACUCCACCUUUGACACAUUACUAGUAACAAGAGGGGACCACAUAGUCUCUGUUGGCAUUUCUUUGUGGUGUCUGUCUGGACAUGCUUCCUAAAA | 0.325 |
| CAGAGCCUUGGUUUAUCCUGUACCUGUCAUUUCUGUUUGCAACUGGUUGCUGUAGCAACAAGAGUGUUUGGUAGCUGACCAAGGUGUCAGGAUCCCUGACCCUAGCGAUA | 0.439 |

Study 3 — target: CCNB1, cyclin fold, Cln2 fusion (human); technique: yeast growth competition, sequencing; medium: yeast; notes: weak parent motif; relative to: not given; direction: higher = stronger binding
Parent: E2F2 docking peptide (human); LPAKRKLDLEGIG
| Variant | normalised enrichment score |
| --- | --- |
| LPAKRKLDLEGIA [G13A] | 1.11 |
| LPAKRKLDLAGIG [E10A] | 0.682 |
| APAKRKLDLEGIG [L1A] | 0.526 |
| LPAKKKLDLEGIG [R5K] | 0.0428 |
| LPAKRKLALEGIG [D8A] | 0.0131 |
| LPAKRKADLEGIG [L7A] | 0.283 |
| LAAKRKLDLEGIG [P2A] | -0.268 |

Mixed results
| Substance | target | assay | test system | conditions | how to read | endpoint | result |
| --- | --- | --- | --- | --- | --- | --- | --- |
| PhoQ, residues 284 288 289 292 302 303 TLSLKA | PhoP, residues 12 14 15 18 19 LFHKL (Escherichia coli, UniProt P23836) | Sort-seq, measured: YFP reporter | E. coli | PhoQ-PhoP variant library, with: 10 µM Mg2+ | relative to: high Mg2+ state, higher = stronger signaling | fold induction | 0.564 |

A few entries again (study 1):
| Sequence | bound/input enrichment [ratio] |
| --- | --- |
| CCAAGAAGGGCCUCCAACAGGCAAAUUCAGGGAGAGGAUGGUUUCAGGGAAUAUCAGUUUAUCCGUGGGUCAUGAAUUAUAGACUUAACAGUAAUGGUUUGUGGUAGGAAGAUCACAACU | 0.457 |
| UGGGAACCGGCGAGAAUCGCCUUUCUGAAUGAAGAGCCCUCUUCACUGCCCCACCCUCACCUCCGAAUUCUCUCCUCUUUCCAAAGAAUGGCAGUUGAACCUCACUGGCCCCUCUGGGGA | 0.227 |
| ACUGCCUUUACCCUGCUGUAUAAUAAACAACCAGACACUUGGCAACUGUUGAUACAGAUGGCCGUCCCGAAUCACUUUUUAUAUGUUUUAACAUUUGAAAUUCAAGUGUACCUGCCAUAA | 0.19 |
